Published values collected from several papers.
A part holds a random share of what one study measured.

Set 1
Target: Histone acetyltransferase KAT6A, both winged helices, GST fusion (KAT6A, Homo sapiens, UniProt Q92794, residues 1-181)
Method: protein binding microarray
Form: double-stranded DNA, one strand shown
Medium: in vitro
Tested at: not given
Notes: 8-mer, flanks averaged, mean of 2 arrays, mostly near background
Baseline: not given
Direction: higher = stronger binding
Residues (chain): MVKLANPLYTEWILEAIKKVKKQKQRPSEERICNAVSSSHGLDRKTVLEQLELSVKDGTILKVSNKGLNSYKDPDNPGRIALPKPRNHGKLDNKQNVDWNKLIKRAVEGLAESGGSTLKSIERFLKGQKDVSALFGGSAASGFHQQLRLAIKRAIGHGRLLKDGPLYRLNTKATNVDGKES
The E-score of `AAGATCGC` is reported as 0.131.
With `AGCCTTAA` the E-score was -0.00869.
For `CTTGGTTC`, the E-score was -0.0168.
`GGATAGAA` has an E-score of -0.016.

Set 2
Target: RNA binding protein fox-1 homolog 2, RRM domain, GST-SBP tag (RBFOX2, Homo sapiens, UniProt O43251-10, residues 100-194)
Method: RNA Bind-n-Seq
Form: RNA
Medium: in vitro
Tested at: 365 nM
Notes: natural RNA segment, single round, ends assumed
Baseline: no-protein control
Direction: higher = stronger binding
Construct (chain): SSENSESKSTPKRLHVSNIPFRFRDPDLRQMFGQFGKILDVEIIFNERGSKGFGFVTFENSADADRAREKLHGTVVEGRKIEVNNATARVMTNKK
For `GGGAGUUCUACAGUCCGACGAUCAGGCCGAGCCCACCCUUAGCCACCAGGCUCAGUGGCUGUACAGAGCAGCUGGCUGACAUCUGUCCCUGCUCCACCCCUGCCCCUACCCGCACCCCUCUGGUUCUCAGCAAUGGAAUUCUCGGGUGCCAA`, “RBNS enrichment (R)” read 0.278.
Under “RBNS enrichment (R)”, `GGGAGUUCUACAGUCCGACGAUCCCCACCUGCACCUAGCAAGGAACAGGUGUUUGAUGUAUUUUGCUCAUGACUGCAGUAUGCAUGUAUUUUUUUCCUUCUCUGUGUUUUCUAAACUUACACUAAAGGAUUCAUGGAAUUCUCGGGUGCCAA` is recorded as 12.1.
`GGGAGUUCUACAGUCCGACGAUCAAGUUCUUUCAGGGAGCUCUGCCAUGAGAGCAAACAGAGCAUAUCUAUCAUAUGCCACUUUGACGAACUAAGUUGGAGUUUUUGUUUCAAGUCAACUUGUGUGAUAAGUUUGGAAUUCUCGGGUGCCAA`: “RBNS enrichment (R)” 0.28.
For `GGGAGUUCUACAGUCCGACGAUCGGGUAUGUCCUGCUCCUUUCCACCAGUGAUUUGUAUUAAGACAGCACUUAUAUUGUACAAUACUUCAGACUGUUUUUUUUAAAUACAUAAAACUUUAUGUUAAAAAACUCUGGAAUUCUCGGGUGCCAA`, “RBNS enrichment (R)” read 0.557.

Set 3
Target: Ras GTPase-activating protein-binding protein 1, RRM domain (G3BP1, Homo sapiens, UniProt Q13283)
Chain of UniProt Q13283 (whole entry, looked up): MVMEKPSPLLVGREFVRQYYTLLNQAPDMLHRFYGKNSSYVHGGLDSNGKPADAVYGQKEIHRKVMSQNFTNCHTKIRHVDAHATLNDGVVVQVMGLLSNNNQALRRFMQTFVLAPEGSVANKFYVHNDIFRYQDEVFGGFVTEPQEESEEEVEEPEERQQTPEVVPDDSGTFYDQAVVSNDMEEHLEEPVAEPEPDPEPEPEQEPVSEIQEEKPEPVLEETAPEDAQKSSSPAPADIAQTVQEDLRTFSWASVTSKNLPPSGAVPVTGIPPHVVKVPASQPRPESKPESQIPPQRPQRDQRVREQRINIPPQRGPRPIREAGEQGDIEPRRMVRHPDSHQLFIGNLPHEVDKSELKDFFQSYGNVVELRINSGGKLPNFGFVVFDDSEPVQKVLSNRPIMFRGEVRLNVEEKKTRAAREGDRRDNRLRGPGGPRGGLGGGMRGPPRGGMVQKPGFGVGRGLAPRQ
Method: RNA Bind-n-Seq
Form: RNA
Medium: in vitro
Tested at: 1 µM
Notes: whole 134-nt RNA, ends assumed
Together with: 150 mM KCl
Baseline: input library
Direction: higher = stronger binding
With `GGGAGUUCUACAGUCCGACGAUCUGGGAGGUGGAUUUUGUUUAUUUUUUUAGCUCAUUUCCAGGGGUGGGAAUUUUUUUUUAAUAUGUGUCAUGAAUAAAGUUGUUAUUGAAAUGGAAUUCUCGGGUGUCAAGG` the log2 enrichment was 1.92.
The log2 enrichment of `GGGAGUUCUACAGUCCGACGAUCCACAGACAACACAAACCCACACAGACACAGAGGGAAGGGGUUGGGAUGGGGACAGGGUGCACAGCAGGGCGGGGUAGGACCCCAGCCCCUUGGAAUUCUCGGGUGUCAAGG` is reported as -0.217.
With `GGGAGUUCUACAGUCCGACGAUCUCCUCAAGUCCUGUGCUACACAUCGUAUGUACCGAAUCGGGUGGUGGGGUGGAAAGUAUUAUGUUACGCCGUUCGGAUCUGCACUUCCAGUGGAAUUCUCGGGUGUCAAGG` the log2 enrichment was -0.1.
`GGGAGUUCUACAGUCCGACGAUCCUCAAGUCCUGUGCUACACAUCGUAUGUACCGAAUCGGAAAGGUUUUUGGUGGAAAGUAUUAUGUUACGCCGUUCGGAUCUGCACUUCCAUGGAAUUCUCGGGUGUCAAGG` gave a log2 enrichment of -0.232.

Further values, each from its own experiment
With `PhoQ, residues 284 288 289 292 302 303 TLMATV` the fold induction was 92.2 (PhoP, residues 12 14 15 18 19 LHHVQ (Escherichia coli, UniProt P23836); Sort-seq, measured: YFP reporter; E. coli; PhoQ-PhoP variant library, together with: 10 µM Mg2+; baseline: high Mg2+ state, higher = stronger signaling).

Excerpt of the above (set 3):
`GGGAGUUCUACAGUCCGACGAUCCUCAAGUCCUGUGCUACACAUCGUAUGUACCGAAUCGGAAAGGUUUUUGGUGGAAAGUAUUAUGUUACGCCGUUCGGAUCUGCACUUCCAUGGAAUUCUCGGGUGUCAAGG` gave a log2 enrichment of -0.232.
The log2 enrichment of `GGGAGUUCUACAGUCCGACGAUCCACAGACAACACAAACCCACACAGACACAGAGGGAAGGGGUUGGGAUGGGGACAGGGUGCACAGCAGGGCGGGGUAGGACCCCAGCCCCUUGGAAUUCUCGGGUGUCAAGG` is reported as -0.217.
